Assay results pooled from the literature.
Numbered parts are unrelated; each lists some results of a single study.

Study 1
Target: PABPC1L2, full length, GST fusion (mouse, UniProt A0ABA7IW68)
Method: RNAcompete
Molecule type: RNA
Sample: in vitro
Tested at: 20 nM
Notes: 7-mer, probes averaged, single round
Relative to: mean of 7-mers
Reading: higher = stronger binding
Residues (chain): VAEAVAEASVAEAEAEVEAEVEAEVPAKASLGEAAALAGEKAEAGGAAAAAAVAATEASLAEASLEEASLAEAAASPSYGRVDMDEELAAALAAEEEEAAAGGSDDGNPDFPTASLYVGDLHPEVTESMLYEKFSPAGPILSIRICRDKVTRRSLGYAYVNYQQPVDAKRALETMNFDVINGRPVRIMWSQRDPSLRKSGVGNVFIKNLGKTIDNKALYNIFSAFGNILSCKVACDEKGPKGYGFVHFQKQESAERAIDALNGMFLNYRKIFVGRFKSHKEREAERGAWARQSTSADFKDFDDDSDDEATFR
| Oligonucleotide | 7-mer Z-score |
| --- | --- |
| AAGUACC | -0.021 |
| GCACGUC | -0.255 |
| UUCAUCA | -0.356 |
| AAAAGUG | 6.53 |
| AACAGAG | 0.833 |
| UUCUCUA | -0.246 |
| CGGCCUC | -0.365 |
| CAGCCUU | -0.298 |
| UAGUUCC | -0.255 |
| GGGUGGC | 0.294 |
| UAGUAAU | -0.124 |
| AUAGGUA | -0.0409 |
| GACCUAC | -0.166 |
| UCGGCUA | -0.208 |
| AACUAAG | 0.276 |
| CAUGCUU | -0.133 |
| CUGGUCA | -0.135 |
| GAAAAGC | 1.97 |
| AAUGCGA | 0.234 |
| GUUUAAC | -0.34 |
| CAGCUAG | -0.119 |
| GAAGAUA | 0.138 |
| UGUCCAA | -0.0863 |
| UGGGUCA | 0.158 |
| AAGAAUU | 0.249 |

Study 2
Target: RNA binding protein fox-1 homolog 2, RRM domain, GST-SBP tag (RBFOX2, Homo sapiens, UniProt O43251-10, residues 100-194)
Method: RNA Bind-n-Seq
Molecule type: RNA
Sample: in vitro
Tested at: 365 nM
Notes: natural RNA segment, single round, ends assumed
Relative to: no-protein control
Reading: higher = stronger binding
Target sequence (chain): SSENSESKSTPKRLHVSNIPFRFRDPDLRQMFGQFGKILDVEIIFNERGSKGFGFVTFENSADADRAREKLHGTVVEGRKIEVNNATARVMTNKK
| Oligonucleotide | RBNS enrichment (R) |
| --- | --- |
| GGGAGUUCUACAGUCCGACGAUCACAGUCAAGGACUACGUUAAAGGUCUCUGGAGAGAGUAUAAAGAGAUUAUUUUUCAUCGUUUUUAAAAGGUUUUGUUUUAAUUUGCACACCUGUGCACAAGGGAAAUAACUGGAAUUCUCGGGUGCCAA | 1.37 |
| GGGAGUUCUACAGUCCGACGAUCCUCUUCAUCUUGCGGGCCUCCUAGGACCCAGCCUUCCAAAGUCCUGGCUGACAGAUGCUGCUCUUGGGCACCUGUCCCCACCCCACCUGCCCUGCUGUCCUCUGUAUCACUGGAAUUCUCGGGUGCCAA | 0.42 |
| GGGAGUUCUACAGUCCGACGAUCUCUGAGGGUAAAGCCGGUGGGAGGCUCAGCAGGCCAGGAGGCCCAAGGACAGGACUUGCGACCUUGAAGCCAAAGGAAUCUCACUUGUGGGGCCUCCUUGUCAGCUCUGCUGGAAUUCUCGGGUGCCAA | 0.415 |
| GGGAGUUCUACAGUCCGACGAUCUCGAGAAGAAAAGGAGAGUAAGAAGGAAAGAGAAGAAGAAUUUAAAACUCACCAUGAAAUGAAAGAAUACUCAGGCUUUGCAGGAGUUAGCCGACCACGAGGAACCUUGUUGGAAUUCUCGGGUGCCAA | 0.591 |
| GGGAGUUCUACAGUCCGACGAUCGCAGAGAAACCUUUCCUCGACCACUCUUUAUUGAGGUACCCUGGUCACACUGAUGGCAGGACACACAAGAGCAGGGUAUUGGUCUGCCCUUCUUCCUCCUGUCCGUCUGAUGGAAUUCUCGGGUGCCAA | 0.348 |
| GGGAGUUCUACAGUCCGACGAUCCAGCUCUGGCUUUGCAUCCUUACUCUCAUGCCCAGUUGCUUAGAGAGAACGGGAGAACAGGUCUAAGGAAUUGUACCUUGAUGUGCUCUGCAAAGGAGAUAACGAAUGGGUGGAAUUCUCGGGUGCCAA | 0.238 |
| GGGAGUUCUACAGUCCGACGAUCACGAAAGAAAUAUCAGGGACUUUUGUUGACUAUUUACAACUCAGUUUUACAUUUAAAUUCAGGCAGUGUUAAUAUGCCAAGGUAGGGAAUGUGCCUUUUUCAGAGUUGGCUGGAAUUCUCGGGUGCCAA | 0.363 |
| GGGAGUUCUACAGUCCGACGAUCACCUGAAAUUGUCCUUUGGACUCCUAGACCCUUCUUCCCCGAUGUGUUUUGUAUGUGGUUAUAAAAUUGUAGACUUUUGUGAUUUUGCCAAAGUUGUAGCUAAAUAUUUAUGGAAUUCUCGGGUGCCAA | 0.585 |
| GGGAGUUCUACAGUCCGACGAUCUCCAUGAACACAUUGCUUCUCGGCCUUUUGGCUAAGAUCAAGUGUAGAAAUCCAUGAACACUAAAGGACUUCAUUGAUUUUUUCAGAGAGUAGAAAACAACUUAGUUUUUUGGAAUUCUCGGGUGCCAA | 0.411 |

Study 3
Target: RING finger protein unkempt homolog, zinc fingers 1-6, GST-SBP tag (UNK, Homo sapiens, UniProt Q9C0B0, residues 30-357)
Method: RNA Bind-n-Seq
Molecule type: RNA
Sample: in vitro
Tested at: not given
Notes: RNA with constant flanks, human-mouse chimeric sites, ends assumed
Relative to: input RNA pool
Reading: higher = stronger binding
Residues (chain): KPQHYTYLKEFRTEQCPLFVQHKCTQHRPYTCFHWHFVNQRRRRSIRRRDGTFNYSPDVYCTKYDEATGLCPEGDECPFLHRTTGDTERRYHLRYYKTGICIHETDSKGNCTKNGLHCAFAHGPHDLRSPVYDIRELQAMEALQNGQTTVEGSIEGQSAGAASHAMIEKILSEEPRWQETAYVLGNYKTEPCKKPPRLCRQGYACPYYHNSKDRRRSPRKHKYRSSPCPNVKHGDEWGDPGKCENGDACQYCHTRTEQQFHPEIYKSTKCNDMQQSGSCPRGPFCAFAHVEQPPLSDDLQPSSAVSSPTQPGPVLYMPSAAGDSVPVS
| Oligonucleotide | bound/input enrichment [ratio] |
| --- | --- |
| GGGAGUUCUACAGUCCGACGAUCUUGAAAAACACAGAUAUCAAAGUUGUUGACUUUGGAAGUGCAACGUAUGACGACGAACAUCACAGUACUUUGGUGUCUACCCGGCACUACAGAGCUCCCGAGGUCAUUUUGGCUUUAGGUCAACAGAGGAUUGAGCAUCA | 0.303 |
| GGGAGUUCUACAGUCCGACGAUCGUGACUGACAUUAAAAUUUCCCCUCAGCAAAGAAGUGCAGUAGUCACCAUAAUUCCAUCUGUGGUGAGUGCCAGUCAGAUUGUGGAGCUGGUCCCAGACCUCAGUUUAGACAUGGGAACUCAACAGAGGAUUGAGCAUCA | 0.227 |
| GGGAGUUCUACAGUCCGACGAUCUUAAUCCCCUUUACUGCUCCCCCACUUCUCAUGGUAAUGACAAAAACUUAUAUCCCCGUCCUAGCUUUCACUCAGAUGGCUUAUGGAGCCGGUUUCCUAUCUUUCUUGGGAGGGAUCAGACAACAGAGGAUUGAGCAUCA | 0.218 |
| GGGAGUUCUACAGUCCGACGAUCGAGCGUCUUGCCCGCACCGGGAUCAUAGUGACCACUAGUGAGGCUGUCCUCCUACAGCUGGUGGCUGACAAAGACCAUCCAAAAUUCAAGGAAAUUCAGAACCUAAUUAAGGCGAGUGCCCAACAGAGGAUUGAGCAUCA | 0.164 |
| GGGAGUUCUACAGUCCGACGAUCACCAUUUUCGCGGUUCAGGCUUUGUGUUGUAUUUACUUACGGUAUUAAAUUAUUAUUCUGCUUAGCUUAUAAUAAGGAUAAUUGCAUUUAAAGAGGUUACUGAAUGUUACUCUGAAACUUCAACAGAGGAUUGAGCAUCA | 0.445 |
| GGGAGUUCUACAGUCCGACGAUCAGAGAAAUGAGAAAGAAUCUCACACAAGAUGAGAUGCAAAGAAUGUCUACUAGAGUCCUUUUGGCGACUCUUUCCAUUCCUAUUACUCCUGAGCGAACUGAUAUUGCUCGACUUUUGGAUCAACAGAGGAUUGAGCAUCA | 0.0781 |
| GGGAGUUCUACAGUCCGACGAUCCCAAUUGUGGAGCAGUACUUGAAGACAAAGAAAAAUUCUAGUCAUUUAAUCAUCAAGUACAUUAGCUGCCGCCUGCUGACACUCAUCGUUAUACUGUUAGCGUGUAUCUACCUGGGCUAUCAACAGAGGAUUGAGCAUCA | 0.686 |
| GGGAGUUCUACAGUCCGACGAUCUAAAUUAGGGCUGCCGUUUUCUGUUUCUCCCUGGGCUGCGGAAAGCCAGAAGAUUUUAUCUAGCUUAUACAAGGCUGCUGGAGCUUGCUCCCUCCCGCCACGAGGGUGUUUUUGGCUGCACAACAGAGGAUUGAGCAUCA | 0.421 |
| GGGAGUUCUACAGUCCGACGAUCGUGUCCUGCUUUCAACUUAAAUCACUGAGGCAUCUCUACUAUUCUGUGAGCAUCAGGAUUUUAGUGCUGUGUCACCACAUGAGAGUUCAGAAGCAGCCUUUCUGUGGAGGGUGGGAAUGACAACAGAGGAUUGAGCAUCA | 0.125 |
| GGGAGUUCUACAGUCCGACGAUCGCUCUUGGGAAUGUAAUCAGCGCCUUGGGGGACAAGAGCAAGAGGGCCACACAUGUCCCUUACAGAGACUCUAAGCUGACAAGACUCUUGCAGGAUUCCCUUGGGGGUAACAGCCAAACCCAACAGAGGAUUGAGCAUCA | 0.0983 |
| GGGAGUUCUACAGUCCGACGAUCUAAGUUAUUUUGUACAGCUUUGUAAAUUCUUAACAUUUUUAUAUUGCCAUGUUUAUUUUGUUUGGGUAAUUUGGUUCAUACAUGGCCUAGCUAAGGUAAUGAACAUCGUAAUUAUAGAUUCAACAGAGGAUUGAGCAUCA | 0.821 |

Study 4
Target: Ras GTPase-activating protein-binding protein 1, full length (G3BP1, Homo sapiens, UniProt Q13283)
UniProt Q13283, sequence (whole entry, looked up): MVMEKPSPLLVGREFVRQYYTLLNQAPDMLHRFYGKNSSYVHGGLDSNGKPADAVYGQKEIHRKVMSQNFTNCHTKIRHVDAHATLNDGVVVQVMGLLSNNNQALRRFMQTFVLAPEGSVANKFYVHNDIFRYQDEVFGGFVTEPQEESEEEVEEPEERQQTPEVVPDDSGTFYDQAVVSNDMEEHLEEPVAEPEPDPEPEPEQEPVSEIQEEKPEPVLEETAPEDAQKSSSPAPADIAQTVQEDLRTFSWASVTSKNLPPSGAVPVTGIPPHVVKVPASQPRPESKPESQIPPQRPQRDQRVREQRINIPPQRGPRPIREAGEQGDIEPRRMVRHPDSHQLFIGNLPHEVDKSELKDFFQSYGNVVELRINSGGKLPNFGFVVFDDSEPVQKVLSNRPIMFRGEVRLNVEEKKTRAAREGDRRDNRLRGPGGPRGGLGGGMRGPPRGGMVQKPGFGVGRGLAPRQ
Method: RNA Bind-n-Seq
Molecule type: RNA
Sample: in vitro
Tested at: 200 nM
Notes: whole 134-nt RNA, ends assumed
Added: 150 mM KCl
Relative to: input library
Reading: higher = stronger binding
| Oligonucleotide | log2 enrichment |
| --- | --- |
| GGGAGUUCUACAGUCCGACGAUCCCUGUGCUACACAUCGUAUGUACCGAAUCGGGUUUUUUUGGGAAAAAAAGGGUUUUUGGGAAAGUAUUAUGUUACGCCGUUCGGAUCUGCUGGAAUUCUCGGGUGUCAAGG | -1.1 |
| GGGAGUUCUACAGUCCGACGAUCAAGUCCUGUGCUACACAUCGUAUGUACCGAAUCGGGGAAAGGGGAAAGGGGUGGGGAAAGUAUUAUGUUACGCCGUUCGGAUCUGCACUUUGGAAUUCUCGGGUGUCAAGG | 0.579 |
| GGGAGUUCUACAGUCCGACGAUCAAGUCCUGUGCUACACAUCGUAUGUACCGAAUCGGGAAAAGGAAAAGGGAAAAGGGGAAAGUAUUAUGUUACGCCGUUCGGAUCUGCACUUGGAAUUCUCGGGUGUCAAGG | -0.546 |
| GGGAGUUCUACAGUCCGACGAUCCACAGACAACACGCACCCACACAGACACAGAGGGAAGGGGUUGGGAUGGGGACAGGGUGCACAGCAGGGCGGGGUAGGACCCCGGCCCCUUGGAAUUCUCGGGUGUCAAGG | 1.91 |
| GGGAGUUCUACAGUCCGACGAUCUCAAGUCCUGUGCUACACAUCGUAUGUACCGAAUCGGGAAGGGGAAGGGAAGGGAAAGUAUUAUGUUACGCCGUUCGGAUCUGCACUUCCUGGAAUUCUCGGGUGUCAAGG | 1.3 |
| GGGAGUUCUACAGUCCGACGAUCAGUCCUGUGCUACACAUCGUAUGUACCGAAUCAAACCCAAACCCCCCCAAAUUUAAAAAAGUAUUAUGUUACGCCGUUCGGAUCUGCACUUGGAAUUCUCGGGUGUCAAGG | -0.446 |
| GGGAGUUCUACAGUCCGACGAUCCCUGUGCUACACAUCGUAUGUACCGAAUCGGAAAAAAAGGGAAAAAAAGGGAAAAAAAGGGAAAGUAUUAUGUUACGCCGUUCGGAUCUGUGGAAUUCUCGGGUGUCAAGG | -0.974 |
| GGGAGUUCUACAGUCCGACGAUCGUCCUGUGCUACACAUCGUAUGUACCGAAUCGGGGCCCCCGGGCCCCCGGGCCCCCGGAAAGUAUUAUGUUACGCCGUUCGGAUCUGCACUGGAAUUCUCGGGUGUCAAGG | -0.713 |
| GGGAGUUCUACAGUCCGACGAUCGCAGGAAGUAAAAACAAAUGGAAAUGCUUCGGAUAGAAACAGGGGUGGGGGUUGCUAAGGAAAGGGUGGGAUGGGAGUGGGUAAAGAGUUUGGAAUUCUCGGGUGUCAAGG | 0.935 |
| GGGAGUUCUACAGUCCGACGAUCAAGUCCUGUGCUACACAUCGUAUGUACCGAAUCGGGUUUUGGUUUUGGUUUUGGGGAAAGUAUUAUGUUACGCCGUUCGGAUCUGCACUUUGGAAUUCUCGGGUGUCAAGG | -1.1 |

Excerpt of the above (study 1):
| Oligonucleotide | 7-mer Z-score |
| --- | --- |
| AACAGAG | 0.833 |
| UUCUCUA | -0.246 |
| CGGCCUC | -0.365 |
| CAGCCUU | -0.298 |
| UAGUUCC | -0.255 |
| GGGUGGC | 0.294 |
